Measurements pooled from the literature.
Numbered parts are unrelated; each lists some results of a single study. Changes are numbered by the printed parent chain.

Block 1
Target: CCND1, cyclin fold, Cln2 fusion (human)
Method: yeast growth competition, sequencing
Sample: yeast
Notes: strong parent motif
Relative to: not given
Reading: higher = stronger binding
Starting sequence: E2F1 docking peptide (human); PPVKRRLDFETDH
For `D12V`, “normalised enrichment score” read 2.95.
Under “normalised enrichment score”, `P2A` is recorded as 1.85.
Under “normalised enrichment score”, `R6H` is recorded as 1.07.
For `D8V`, “normalised enrichment score” read 2.6.
For `R6T`, “normalised enrichment score” read 1.15.
`E10N`: “normalised enrichment score” 2.95.
`F9I`: “normalised enrichment score” 0.318.
For `R6D`, “normalised enrichment score” read 0.0818.
`P2L` — result for “normalised enrichment score”: 1.35.
Under “normalised enrichment score”, `R5K` is recorded as 0.77.
Under “normalised enrichment score”, `F9A` is recorded as 0.107.
`R5G` — result for “normalised enrichment score”: 0.463.
For `T11N`, “normalised enrichment score” read 3.3.
Under “normalised enrichment score”, `V3M` is recorded as 0.319.
`D12S`: “normalised enrichment score” 2.79.
`T11Q`: “normalised enrichment score” 2.88.
For `F9V`, “normalised enrichment score” read -0.381.

Block 2
Target: RNA binding protein fox-1 homolog 2, RRM domain, GST-SBP tag (RBFOX2, Homo sapiens, UniProt O43251-10, residues 100-194)
Method: RNA Bind-n-Seq
Form: RNA
Sample: in vitro
Tested at: 365 nM
Notes: natural RNA segment, single round, ends assumed
Relative to: no-protein control
Reading: higher = stronger binding
Construct (chain): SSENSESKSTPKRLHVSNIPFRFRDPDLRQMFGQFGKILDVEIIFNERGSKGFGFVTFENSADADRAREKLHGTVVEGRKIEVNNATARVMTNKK
Under “RBNS enrichment (R)”, `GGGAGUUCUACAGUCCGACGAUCCUAAUUCAUUGCAGUUCAUACUUAUUGACUCAGAGUUUAAAACCACAAUCUGUAGGCUUUAAGAAUUGCUUUUAAACCUUUUUAAGUGAUAAACUCUUGAAGUGGUCUUAUGGAAUUCUCGGGUGCCAA` is recorded as 0.477.
Under “RBNS enrichment (R)”, `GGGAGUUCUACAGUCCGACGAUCACAGUUGAUCCUUGUAAAUACAUUAUGCAGAAUAUUUAUUUUUCUUAAAAUGUAUUUUCACAACCCCAGUGGCUGUGGCCAAAUGAGUCCUCAUUGAACACGAGAUGGAGUGGAAUUCUCGGGUGCCAA` is recorded as 0.288.
For `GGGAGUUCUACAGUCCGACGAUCAGGACCUCCCACAACCUGGUUCCCCACACAUCCAUAGUUCUGCCUCCCCAGCUUCUCCUCCCCAGUUGUAAAUAGUAUUUAUUAGCUUGCCGAGGCUUCCUGCUAGCAACUGGAAUUCUCGGGUGCCAA`, “RBNS enrichment (R)” read 0.654.
`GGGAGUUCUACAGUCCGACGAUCUCCAGUUCCCCGUUUAGAACUCAUUAGCUGUGUGACUCUGGGUGAGUCCCUUAACCCCUCUGAGCCCGGGUCUCUUCAUUAGUUGAAAGGGAUAGUAAUACCUACUUGCAUGGAAUUCUCGGGUGCCAA` — result for “RBNS enrichment (R)”: 1.45.
`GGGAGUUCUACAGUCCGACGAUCCACAGCAGCAAAGCACAGAGUGUGACCUUUUUCAUGUCUGAGCUGAUUCUGUUUGCUCCACGUGCCUGCUUCUUGCUACUGUUCAUUUAGUAAUGGGAUCACCUCACCAUUGGAAUUCUCGGGUGCCAA`: “RBNS enrichment (R)” 0.461.
`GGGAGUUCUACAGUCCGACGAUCAAUAAGUAAUUUAUUGUAAGACAACAUCAAGCCAUGGAAACUUGGCAGAAGAUUCAAAGCAGCUUAAACAGCACUUUUAAAUUAACUCCUAAGCGUUACAUGGUUGUGACUGGAAUUCUCGGGUGCCAA`: “RBNS enrichment (R)” 0.233.
`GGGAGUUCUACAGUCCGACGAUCAGUCUGUCCCUAUUUAUGUAUGGUGGUUGAGGGCUGUGUGGCCAGGACCAAGAGCAAGGCCCAGCUUCUGCUGGCCAAUCGUGUUCCUUCAGAUCACCCACAAUAAAGCGUGGAAUUCUCGGGUGCCAA`: “RBNS enrichment (R)” 0.267.
Under “RBNS enrichment (R)”, `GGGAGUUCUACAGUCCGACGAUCGCUUGGGUCUCAGGGGAGAUAUGCUUAAGGCCAGAGCUCUUCCUCAGUAUUUGAUUUUUCCAGUGUUUGUUUUUUAAAAAACUGACAGGUGCUACAUUUCUAUCUGUUGGUGGAAUUCUCGGGUGCCAA` is recorded as 1.26.
`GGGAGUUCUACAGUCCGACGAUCUUGUAAAAAUUUAAAUAAAUGAAUGUCUAUACUUUUUAUAAAGAAAAGUGAAAAUACCAUGACACUGAAAAGAUGAUGCUAUCAGAUGCUGUUUAGAAAGCAUUUAUCUUUGGAAUUCUCGGGUGCCAA` — result for “RBNS enrichment (R)”: 1.61.
`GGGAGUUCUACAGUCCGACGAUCGAGAACUAUAUGCAGAUUUUAAAAUCUAGUCAGUACUAGCAUCUAUAAAGGGCUUUUCUGAAAUUUAAACAGCUUGGUGAUGCAUCCUGAUAUUAUAAGCUUAAAACUAUUGGAAUUCUCGGGUGCCAA` — result for “RBNS enrichment (R)”: 0.962.
For `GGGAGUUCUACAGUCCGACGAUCAUAUCUCCCAUCAUAAGAGGCUGCAGCUGGGCUGUGCCUCCCAGUAAAACAGUCACGAACCAAACCUGUGCAGUCCCUUGUUCCAGAUCACCUGGAACUGGAUUGGGAAGUGGAAUUCUCGGGUGCCAA`, “RBNS enrichment (R)” read 0.304.
`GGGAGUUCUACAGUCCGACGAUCCAGUGUGUCACACUGAGCUGGGCACCACAGGCUGCCUCAUGACCCUCCUGUCCAGCAGGUAGUGGGUGAAUGUGUGAAGGUCUUGCCUGAAUCCAUCAGGACUUGGGAAAUGGAAUUCUCGGGUGCCAA` — result for “RBNS enrichment (R)”: 0.913.

Block 3
Target: Max-binding protein MNT, bHLH-zipper, MAX partner unstated (MNT, Homo sapiens, UniProt Q99583, residues 220-300)
Method: protein-binding microarray
Form: double-stranded DNA, one strand shown
Sample: in vitro
Tested at: not given
Notes: k-mer, scored over probes, only values ≥0.25
Reading: higher = stronger binding
Construct (chain): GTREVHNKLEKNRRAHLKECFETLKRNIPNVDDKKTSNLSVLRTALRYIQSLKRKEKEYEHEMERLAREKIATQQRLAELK
For `ACATGTCA`, the E-score was 0.324.
The E-score of `CGACATGA` is reported as 0.257.
`CATGGAGC` has an E-score of 0.282.
The E-score of `CACGTTAG` is reported as 0.357.
With `ACGTGAGA` the E-score was 0.379.
With `CACGTTCG` the E-score was 0.267.
The E-score of `CGCTCCAC` is reported as 0.251.
`CCCACGCG` gave an E-score of 0.456.
The E-score of `ACGTGAGG` is reported as 0.374.
`ACGTGGGG` has an E-score of 0.414.
With `CCGACCCG` the E-score was 0.288.
`CCGCGAGG` gave an E-score of 0.277.
`GCGGTCAC` has an E-score of 0.266.
For `AGCAGGTG`, the E-score was 0.329.
For `GACGCCAC`, the E-score was 0.338.
`GCGTGTTA` has an E-score of 0.408.

Block 4
Target: Sal-like protein 4, full length isoform B (SALL4, Homo sapiens, UniProt Q9UJQ4-2, residues 1-616)
Method: universal PBM
Form: double-stranded DNA, one strand shown
Sample: in vitro
Tested at: not given
Notes: 8-mer, flanks averaged, mean of replicates
Reading: higher = stronger binding
With `AAAACGTA` the E-score was 0.161.
For `ATCATAGC`, the E-score was 0.153.
`CTTGGTAA` gave an E-score of 0.146.
For `ACCGGCCA`, the E-score was -0.396.
The E-score of `CGGATATC` is reported as 0.00796.
For `CTAGCTAA`, the E-score was -0.13.
`ACCTCGGG` gave an E-score of -0.283.
For `GAGTTCAA`, the E-score was 0.143.
With `ATTCTGGA` the E-score was 0.222.
For `CCAGTGGG`, the E-score was -0.342.
`GACGATGC` gave an E-score of -0.0577.
With `CACTCGCC` the E-score was -0.169.
For `ATATTGGA`, the E-score was 0.355.
The E-score of `CAAACAAA` is reported as 0.135.
With `ACGATACC` the E-score was 0.0673.
`CTAAGACC` gave an E-score of -0.191.
For `GCTTGTGA`, the E-score was -0.116.
`GCGCCCAA` gave an E-score of -0.18.
`CGGCGATA` has an E-score of -0.0289.
`AAGTTTAT` gave an E-score of 0.305.
`AATAACAT` gave an E-score of 0.361.
`AAGATCGA` gave an E-score of 0.104.
For `GAGAATCA`, the E-score was 0.00653.
With `CACCCCCC` the E-score was -0.254.
`CGTACAAG` gave an E-score of 0.001.

Block 5
Target: Phosphate system positive regulatory protein PHO4, full length, GST-tagged (PHO4, Saccharomyces cerevisiae, UniProt P07270, residues 1-312)
Method: competition protein-binding microarray
Form: double-stranded DNA, one strand shown
Sample: in vitro
Tested at: 2 µM
Notes: whole 60-bp probe, lowest competitor level
Together with: Cbf1 competitor, 0.05 µM
Reading: higher = stronger binding
Construct (chain): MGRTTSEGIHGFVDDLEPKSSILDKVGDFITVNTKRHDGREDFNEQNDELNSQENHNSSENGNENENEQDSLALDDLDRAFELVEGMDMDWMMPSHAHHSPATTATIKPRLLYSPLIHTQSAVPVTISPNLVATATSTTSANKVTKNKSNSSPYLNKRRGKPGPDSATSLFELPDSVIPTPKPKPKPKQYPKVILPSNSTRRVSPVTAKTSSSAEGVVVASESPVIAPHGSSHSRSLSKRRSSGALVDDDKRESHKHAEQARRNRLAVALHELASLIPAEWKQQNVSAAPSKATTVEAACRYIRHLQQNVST
With `TGCGCAACAACTTGAGTTGTGGGTGTATGTCTAGAAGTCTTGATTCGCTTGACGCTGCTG` the fluorescence intensity was 5610 a.u.
`GCCACATTGTATCAACGCGTGATGGACAAATGTTTGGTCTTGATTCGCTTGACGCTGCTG` has a fluorescence intensity of 9140 a.u.
`CATACCCAACCTTTTCACGTGTAGTAAGATATTTGTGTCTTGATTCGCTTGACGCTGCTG` has a fluorescence intensity of 15400 a.u.
For `CATACCCAACCTTGGGACGTGGGTGAAGATATTTGTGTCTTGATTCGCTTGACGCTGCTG`, the fluorescence intensity was 7500 a.u.
`TTGTTCTTGATCGGCAGCATGACAAGGCTCTAAGTAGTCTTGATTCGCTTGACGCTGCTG` has a fluorescence intensity of 4340 a.u.
For `CTTCTGTAAATTTTTCACGTGATCTGACGCGCCCCGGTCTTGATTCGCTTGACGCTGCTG`, the fluorescence intensity was 10300 a.u.
The fluorescence intensity of `CCCCGTAGGGCCCGACACGTCTAAAATATTAACCTCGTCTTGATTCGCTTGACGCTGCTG` is reported as 4290 a.u.
`AAGAACCCGATATCGCACGCTTCTCCAGGGGTCGGTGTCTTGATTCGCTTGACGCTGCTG` gave a fluorescence intensity of 8440 a.u.
`CTTCTGTAAATTTGTTCGGTGGGTGGACGCGCCCCGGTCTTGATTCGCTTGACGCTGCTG` gave a fluorescence intensity of 3970 a.u.
`CCCCGAAATTGAGCGCACATGCTCGCAAGATAATATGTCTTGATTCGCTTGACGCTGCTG` has a fluorescence intensity of 11600 a.u.
`GGTGGGCTATACTTCCGTGTGACGGATTTCACAAAGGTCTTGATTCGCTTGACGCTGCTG` has a fluorescence intensity of 5270 a.u.
`CTGTCCAACGCCTGCAGCGTGGATGTGGAGGCGGACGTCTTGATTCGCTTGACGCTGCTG` has a fluorescence intensity of 6640 a.u.
The fluorescence intensity of `TCTCATCCATTCCGTCACGCTTTGGTTGCCGGTATTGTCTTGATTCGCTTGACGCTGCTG` is reported as 7020 a.u.
The fluorescence intensity of `AAAGCGGTAATTTGCTGGGTGGGTGCAGATATCTATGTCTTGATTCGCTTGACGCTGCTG` is reported as 4340 a.u.
For `AAATTACTAAGTTGTTCAGTGGGTGACGCCGTATGAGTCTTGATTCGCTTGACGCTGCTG`, the fluorescence intensity was 4030 a.u.
For `CTCTTCTACAGTTACCACATGCAAAAGTCTTTCCTGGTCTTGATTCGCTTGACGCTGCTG`, the fluorescence intensity was 8890 a.u.
With `AGCCTGTCTATGGCCAAGCCATGTCAAGTACTACAAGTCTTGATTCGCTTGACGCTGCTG` the fluorescence intensity was 2970 a.u.
With `GTTGATTTGAACAGAAGCGTGGTGAACGGCTTTGATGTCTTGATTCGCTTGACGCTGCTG` the fluorescence intensity was 8370 a.u.
With `CCAAGGAAATCCCGTCACAATACGCTCCTCAGTTGAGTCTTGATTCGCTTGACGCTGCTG` the fluorescence intensity was 3300 a.u.
For `CTTTCCCGATCTTGGCGTGTGGGTGTAGCACATTTGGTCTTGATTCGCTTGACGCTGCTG`, the fluorescence intensity was 7330 a.u.
The fluorescence intensity of `TTCCCGGGAGGGGTGGGCGTGCGATTGGAATTAGTCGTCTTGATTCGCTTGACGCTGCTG` is reported as 10200 a.u.
